Experimental data collected from several papers.
Numbered parts are unrelated; each lists some results of a single study.

Set 1 — technique: RNA Bind-n-Seq; form: RNA; matrix: in vitro; tested at: 365 nM; relative to: no-protein control; direction: higher = stronger binding; measurement: RBNS enrichment (R)
Target: RNA binding protein fox-1 homolog 2, RRM domain, GST-SBP tag (RBFOX2, Homo sapiens, UniProt O43251-10, residues 100-194)
Notes: natural RNA segment, single round, ends assumed
Constant ends, left off below: GGGAGUUCUACAGUCCGACGAUC … UGGAAUUCUCGGGUGCCAA
Residues (chain): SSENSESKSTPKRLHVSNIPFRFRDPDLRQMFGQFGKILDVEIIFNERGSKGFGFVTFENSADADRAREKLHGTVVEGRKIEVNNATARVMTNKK
UCCAAGACUGUACCAAGCCAAGCUCUGAUAAGCUUCCAUCUUCCAUGGCUGGUAGACUGAACUGUCCCAGAAUCACUAGCUUGAGGUAGAGGAGGGGAGGGCAGAGUCAC: 0.464
GAUGGACAUGAUAAACCAGUUCUCAGUAGGAGGAAGUAGGACCUUCGAGAGUGGGAGUCUGGUACACCCAUUGGAACAAGUCCUUCGAUAAAUAAAACAGUUAUCACAUU: 0.362
CCAAAUGUCUUGACUGUGUUGUUUUUAAUCACUGUGACCCUUAAAGUACAGGCCAAGUGUUGUCAAACACCUUGGCUAAAACAGUGGAGGGUGAUGGGUAAAGCAGUAGA: 0.219
UAUCCUAUGGUGAUGCUGUUUCUCGUUGCUAAUGGCAUUAGUGCCCCUGUAUCCUAGUGAUAACUCCAGGUCUGUGAACCAUUCAAACAGCAUUCAUUUUGAGAAAAGCA: 9.32
UUGGGGGGAAAAAAAUAUCCAUUGUGAAAAUGAAAGUACAGCCUAGCUCACCUGGGGCCUCCCUGCUCACACCAAUGCAGGUUUCAAUAAAGACUCAGCCAUGCUUCCGU: 0.468
AAGCUACGCCGGUGGAAUGUCAGUGUGCUGCUCUGUAGGGAACUGCAGAGCUUAGAGGACUGACUGCAUCUUGUUAGGGAAGCAUCUUUGAGAUGCAGAAUUCAUCUUUU: 0.237
CUAACCACCAAGCUUCCCUUUGACUGGCUCCAAAGGCUUUUAUUUAAGUGAGAUGGAAAAGCUGAAUGCUGACACACCCCACCCAUAAGCAAAGUAUCAACGCUUUCUGA: 0.422
UGGCCAGCCUUCAGCUCGCUCCUCCACUUCUGAGGGGCCUAGGAGGCCUCCCACAGGUGUCCCGGCAAGAGAAGACACGGUGGUGGAAGAAGAGGCCUGGUAAUGGCCCC: 0.445
UCUGCCCUUUAUCUCACACUCCCUAUCCUUGGCCCACUGCCAGUCCCUGCCUUGUGGCAAAGGGGCCCCAAAAGAAAAGCUGCCCUUCCCCAAAUGUAAGGACCCAGGUA: 1.14
UUUUUGGAAGGACUACAGAAAGUACCUGAUUUGCACUUGAACCAGAUUAUAGAUUUAAAAGUAUAUGACAUGUAUUUUGUAUUUAAAACUAGAAUAGCCAGUAUUUAUGU: 0.842
GCUACAGACGAGUGACCCUUAGAUGACCUCCUCAACUGCCUGCCUUGUGUGUGCGCGCAAGGCCCCUCUCUGCACAGGGGUUCUUCGGGGGAGGGGGUAUUUGCAAAACC: 0.671
CAAGAACCAGCUAAACAAUUAGAUACAGUUUAAUAUUUGUACCUCCAAAUCUAUCACUUCCUUCCUUCUUUCCUUCCUUCCUUUCUUCCCUUGCUGGCCUCAAGCUUGCA: 5.71

Set 2 — technique: protein-binding microarray; form: double-stranded DNA, one strand shown; matrix: in vitro; tested at: 250 nM; notes: 60-bp whole probe; together with: salmon DNA 0.4 mg/ml; relative to: random background probes; direction: higher = stronger binding; measurement: log fluorescence; constant ends, left off below: GCCTAGCAC … GTCTTGATTCGCTTGACGCTGCTG
Target: Interferon regulatory factor 7, full length, phosphomimetic (IRF7, Homo sapiens, UniProt Q92985, residues 1-503, S101K/S471D/S472D/S475D/S476D/S477D/S483D/S484D/S487D)
Chain of UniProt Q92985 (whole entry, unmodified, looked up): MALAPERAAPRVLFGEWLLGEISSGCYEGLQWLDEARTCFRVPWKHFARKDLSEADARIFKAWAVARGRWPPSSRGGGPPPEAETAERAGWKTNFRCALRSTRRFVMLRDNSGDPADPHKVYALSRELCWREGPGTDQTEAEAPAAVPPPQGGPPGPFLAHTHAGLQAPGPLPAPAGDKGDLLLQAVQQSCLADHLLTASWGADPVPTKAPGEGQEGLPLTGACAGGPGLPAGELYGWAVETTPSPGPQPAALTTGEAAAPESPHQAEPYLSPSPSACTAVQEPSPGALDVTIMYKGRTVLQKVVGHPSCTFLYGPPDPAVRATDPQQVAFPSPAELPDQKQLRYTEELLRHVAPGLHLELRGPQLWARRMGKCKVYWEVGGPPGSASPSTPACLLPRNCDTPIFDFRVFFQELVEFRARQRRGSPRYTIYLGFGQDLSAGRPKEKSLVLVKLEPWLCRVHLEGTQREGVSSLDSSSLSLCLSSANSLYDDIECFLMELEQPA
CCACTTTCACTTCTCCCTTTGTGCTAG: 5.07 z-score
TTAGAACTGAGTATCGATTTGTGCTAG: 2.59 z-score
TTAGATATTGGGTATCGATTAGTGCTA: 0.458 z-score
TCAAGTTTACCCATCTCCAGGTGCTAG: 0.435 z-score
TTAGATTTCAGCATCGATTAGTGCTAG: 0.465 z-score
GACGGTATCGGTATTGGGACGTGCTAG: 1.27 z-score
GACGGACTGGGACGGGGGACGTGCTAG: 1.18 z-score
TCAAAGCAAAAATGATTACTGTGCTAG: -0.0392 z-score
GGCTGTTTGATCTTGATCCTGTGCTAG: -0.805 z-score
GACGGACTGCATCTCCTGACGTGCTAG: -0.874 z-score
GACGGTATCGAGACTGGGGACGTGCTA: -0.139 z-score
TTAGATTCCAGTTTCTATTAGTGCTAG: 5.76 z-score
TCAATTATGAGTCTTGAACTGTGCTAG: -0.0601 z-score
GACGGACTGGGTTTCGGTACGTGCTAG: 3.14 z-score
AATGTTTTGTTTTTCATTATGTGCTAG: 2.4 z-score
TTAGAACTGGGGTATGGATTAGTGCTA: -0.445 z-score
TTAGGTTTCGGTCTCGCTTAGTGCTAG: 8.19 z-score
GACGTTTTCGGTTTCGGGACGTGCTAG: 9.25 z-score
TCATCTTTTCTTTTCTTACTGTGCTAG: 1.9 z-score

Set 3 — technique: competition protein-binding microarray; form: double-stranded DNA, one strand shown; matrix: in vitro; tested at: 2 µM; together with: Cbf1 competitor, 0.05 µM; direction: higher = stronger binding; measurement: fluorescence intensity; constant ends, left off below: … GTCTTGATTCGCTTGACGCTGCTG
Target: Phosphate system positive regulatory protein PHO4, full length, GST-tagged (PHO4, Saccharomyces cerevisiae, UniProt P07270, residues 1-312)
Notes: whole 60-bp probe, lowest competitor level
Construct (chain): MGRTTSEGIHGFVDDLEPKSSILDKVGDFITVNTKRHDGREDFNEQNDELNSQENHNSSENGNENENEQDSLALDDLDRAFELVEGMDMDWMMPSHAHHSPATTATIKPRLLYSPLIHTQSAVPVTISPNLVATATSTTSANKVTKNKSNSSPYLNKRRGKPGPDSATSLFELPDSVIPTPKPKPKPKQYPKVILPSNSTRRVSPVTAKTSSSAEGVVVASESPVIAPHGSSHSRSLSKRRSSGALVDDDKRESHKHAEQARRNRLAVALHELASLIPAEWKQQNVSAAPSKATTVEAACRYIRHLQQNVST
GACAGGAACTGCTGTCATATGAAAACCTAAAAATGT: 3390 a.u.
GCTGTTGAGTTTGCGGACGTGTCGGAGAGCGCGTAG: 4810 a.u.
CATTGCCGGCCCGGCCACGTGCAAAGTCTGGTTGAG: 19000 a.u.
CGTCCTAGTGATTGGACTGTGGGTGCCATGAGGAAG: 6380 a.u.
CTAACGAAGGTTTGAGAGGTGGGTGACAAGCCAAGT: 3550 a.u.
CATACCCAACCTTGTTCAGTGGGTGAAGATATTTGT: 3340 a.u.
CGGGGTTAAGTTTTTCACGTGGGATGCTTGCAGCAG: 13300 a.u.
CATTGCGAGGGTACATCCGTGCAATATTTCTGAAAA: 5040 a.u.
CTCCTGGCTGCCTGCCTCGTGGTGGTCAATTCGCTG: 11100 a.u.
CATACCCAACCTTGATCCGTGGGTGAAGATATTTGT: 5150 a.u.
CTAACGAAGGTTTGACAAGTGGGTGACAAGCCAAGT: 3650 a.u.
CAAAGAAAATGCTCCCTCGTGGCCGTCCATCCAGGC: 11100 a.u.
CTCTTATCGGTATTACTTTCTTATCAATGAAAAATT: 4540 a.u.
CTGTAGACTCAGAGTCAGCTGATTGTTGGGTATGTG: 3170 a.u.

Set 4 — technique: RNAcompete; form: RNA; matrix: in vitro; tested at: 20 nM; notes: 7-mer, probes averaged, single round; relative to: mean of 7-mers; direction: higher = stronger binding; measurement: 7-mer Z-score
Target: PABPC1L2, full length, GST fusion (mouse, UniProt A0ABA7IW68)
Target sequence (chain): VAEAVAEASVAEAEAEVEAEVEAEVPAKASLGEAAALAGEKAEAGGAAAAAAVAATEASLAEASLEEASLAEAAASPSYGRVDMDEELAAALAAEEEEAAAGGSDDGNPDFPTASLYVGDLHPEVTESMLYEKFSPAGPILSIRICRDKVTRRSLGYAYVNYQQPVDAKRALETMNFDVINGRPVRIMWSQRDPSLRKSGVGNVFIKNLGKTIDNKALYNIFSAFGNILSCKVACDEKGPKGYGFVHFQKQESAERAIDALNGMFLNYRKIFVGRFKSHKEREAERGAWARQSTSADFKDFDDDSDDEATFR
UGACACU: -0.151
UCACGGU: -0.193
AGACAAU: 0.0261
CCAUCUG: -0.414
GGACUCG: -0.0409
CAUUGGC: -0.219
GAAAUGU: -0.0355
AUCCCGC: -0.45
UCCGUUU: -0.514
AAAAAUA: 15
CGGUUAA: 0.119
GCUGACU: -0.0645
AGGAUAC: -0.0536
GUGUCAG: -0.139
AAGUUCC: -0.021
UCUCCGA: -0.356
ACGCCCC: -0.262
GUGUCCG: -0.253
CCAUGGC: -0.266
UAUUUGU: -0.338
GAUGUAA: 0.108
AAGAAUG: 0.447
ACAAAUU: 1.22
UCCGCGC: -0.36
UAAGCCU: -0.273

Set 5 — technique: universal PBM; form: double-stranded DNA, one strand shown; matrix: in vitro; tested at: not given; direction: higher = stronger binding; measurement: E-score
Target: Sal-like protein 4, full length isoform B (SALL4, Homo sapiens, UniProt Q9UJQ4-2, residues 1-616)
Notes: 8-mer, flanks averaged, mean of replicates
AGAGCGGA: -0.0442
CGACTACG: -0.0435
ACTCAGAT: -0.0126
ATAAAGGC: 0.118
CGCATTTC: -0.0819
AGGCTGAA: -0.0732
TGAACGCA: 0.143
ATCTTGAG: -0.0174
ATGCATAG: 0.167
AACCTATA: 0.295
CACCAGAC: -0.254
CTTCCGAC: -0.0619
ATTCACTC: 0.126
CTTTTTTA: 0.167
TCAATGAA: 0.0536
GTCACCTA: -0.0803
CCTTTGTA: 0.114
CACGCCGA: -0.35
CCTAGTTC: -0.0997
GAAGGAAC: -0.117
ACTGATGC: -0.0819
CGTACTTC: 0.0779
TAGACCCA: -0.0745
CAGTGAGA: -0.0845
GCGCAGCC: -0.356
